# Published values of several laboratories.
# Each line is one published result; not all experiments were run side by side.
# FLT3: Receptor-type tyrosine-protein kinase FLT3 (FLT3, Homo sapiens, UniProt P36888)
# FLT3 K663Q: Receptor-type tyrosine-protein kinase FLT3 (FLT3, Homo sapiens, UniProt P36888, K663Q)
# FLT3 D835H: Receptor-type tyrosine-protein kinase FLT3 (FLT3, Homo sapiens, UniProt P36888, D835H)
SMILES,target,observed,technique,tested at,relative to,remaining binding [%]
Cc1cnc2nc1Nc1cccc(c1)COC/C=C/COCc1cc(ccc1OCCN1CCOCC1)N2,FLT3,binding,,0.1 µM,,0.75
CC(C)=CC1OC(C)(C)C2C=C3C(=O)C(Cl)=CC(O)C3C3C(O)C4OC4C(=O)C132 (centres unmarked),"FLT3 (Homo sapiens, UniProt P36888, R834Q)",cell-free assay,competition with immobilised ligand,10 µM,,100
COc1c(Cl)cccc1Nc1c(-c2ccncc2C#C[C@@]2(C)CCCN2C(=O)/C=C/CN(C)C)[nH]c2c1C(=O)NCC2,FLT3 K663Q,binding,competition with immobilised ligand,3 µM,,93
Nc1ncc2c(n1)-c1c([nH]c3ccc(C4=CCOCC4)cc13)CCC2,FLT3 D835H,binding,competition with immobilised ligand,1 µM,,99
C=CC(=O)N1CCCC(n2c(=O)c3ncccc3n(Cc3ccc(Oc4ccccc4)cc3)c2=O)C1 (centres unmarked),FLT3 K663Q,cell-free assay,competition with immobilised ligand,1 µM,,100
Cc1ccc(-c2c(/C=C(\C#N)C(=O)NC(C)C)n(CCCO)c3ncnc(N)c23)cc1,FLT3,cell-free assay,competition with immobilised ligand,1 µM,,52
CNC(=O)C1CCN(c2cc(C)c(F)cc2NC(=O)c2ccc(-c3cc(O)ccc3C)c(C)c2)CC1,"FLT3 (Homo sapiens, UniProt P36888, D835V)",binding,competition with immobilised ligand,1 µM,,100
C=CC(=O)N1CCc2ccc(-n3c(=O)ccc4cnc5ccc(-c6cnn(C)c6)cc5c43)cc21,"FLT3 (Homo sapiens, UniProt P36888, N841I)",,KINOMEscan,1 µM,DMSO control,99
CCN1CCN(Cc2ccc(C(=O)Nc3ccc(C)c(NCc4cnc5[nH]ccc5c4OC)c3)cc2C(F)(F)F)CC1,"Receptor-type tyrosine-protein kinase FLT3, autoinhibited (FLT3, Homo sapiens, UniProt P36888)",binding,competition with immobilised ligand,1 µM,,76
CNC1C[S+]2CC[S+]3CC[S+](C1)[Ru-4]321([N]=C=S)[n]2c3ccc(OC)cc3c3c4c(c5cc(F)c[n+]1c5c32)C(=O)NC4=O (centres unmarked),FLT3 D835H,,KinomeScan,0.1 µM,untreated,30
CCN1CCN(Cc2ccc(NC(=O)c3ccc(C)c(NC(=O)c4cncc(-c5cccs5)c4)c3)cc2C(F)(F)F)CC1,FLT3,binding,competition with immobilised ligand,1 µM,,0.65
